Experimental data gathered from unrelated publications.
Compare with care: the assays were run in different laboratories. Numbers after ± are the reported error.
ZTP riboswitch RNA: ZTP riboswitch RNA (Fusobacterium ulcerans)
T1: ZTP riboswitch RNA (Fusobacterium ulcerans); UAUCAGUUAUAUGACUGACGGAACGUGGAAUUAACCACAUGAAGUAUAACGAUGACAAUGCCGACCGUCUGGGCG
T2: TERRA RNA G4, 5-benzofuranyl uridine in one loop (Homo sapiens); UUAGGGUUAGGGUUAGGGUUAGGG
T3: dsDNA, abasic THF site, position 11; chain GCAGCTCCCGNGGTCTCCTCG; chain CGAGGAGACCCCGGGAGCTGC
T4: dsDNA, self-complementary, T9 linker hairpin; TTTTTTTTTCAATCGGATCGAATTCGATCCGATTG
T5: DNA aptamer; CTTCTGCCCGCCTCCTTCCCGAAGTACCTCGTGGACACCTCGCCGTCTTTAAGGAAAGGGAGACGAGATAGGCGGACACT
T6: T-box antiterminator RNA; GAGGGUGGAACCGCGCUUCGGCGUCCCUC
T7: RNA riboswitch, preQ1 riboswitch (Thermoanaerobacter tengcongensis); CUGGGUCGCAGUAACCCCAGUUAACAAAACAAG
Sequence of UniProt P08870 (whole entry, looked up): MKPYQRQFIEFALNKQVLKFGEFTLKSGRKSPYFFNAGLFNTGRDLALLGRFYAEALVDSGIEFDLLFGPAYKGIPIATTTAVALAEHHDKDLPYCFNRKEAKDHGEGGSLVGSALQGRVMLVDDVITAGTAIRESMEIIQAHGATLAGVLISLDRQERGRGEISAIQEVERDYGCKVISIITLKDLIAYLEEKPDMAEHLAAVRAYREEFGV
Sequence of UniProt P80188 (whole entry, looked up): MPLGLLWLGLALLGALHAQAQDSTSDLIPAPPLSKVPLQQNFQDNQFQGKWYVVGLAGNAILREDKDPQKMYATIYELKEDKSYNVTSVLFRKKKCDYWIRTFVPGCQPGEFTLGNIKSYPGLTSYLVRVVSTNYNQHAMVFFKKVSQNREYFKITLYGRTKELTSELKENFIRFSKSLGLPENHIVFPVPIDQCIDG

O=P(O)(O)OP(=O)(O)O
Kd (Orotate phosphoribosyltransferase (pyrE, Salmonella typhimurium, UniProt P08870); centrifugal filtration; pH 8.0, wild type, Scatchard extrapolation): 960 ± 120 µM

NC(=O)c1ncn(C2CCNCC2)c1N
Kd (T1, ZTP riboswitch RNA (Fusobacterium ulcerans); ITC; pH 7.4, 37 °C, KCl 150 mM): 11 µM

CN(C)c1ccc(Nc2c3ccc(NC(=O)CCN4CCCC4)cc3nc3cc(NC(=O)CCN4CCCC4)ccc23)cc1
Kd (T2, TERRA RNA G4, 5-benzofuranyl uridine in one loop (Homo sapiens); fluorescence titration; pH 7.5, 20 °C, NaCl 100 mM, apparent, parallel G-quadruplex): 0.244 µM

Cc1nc2nc(N)ccc2c(C)c1C
Kd (T3, dsDNA, abasic THF site, position 11; fluorescence titration; pH 7.0, 20 °C, NaCl 100 mM): 0.053 µM

CN1CCN(CCCN2C(=O)c3ccc4c5c(ccc(c35)C2=O)C(=O)N(CCCN2CCN(C)CC2)C4=O)CC1
Kd (T4, dsDNA, self-complementary, T9 linker hairpin; SPR; KCl 100 mM, two-site fit): 17.1 µM

CCCCCCCCCCCCCCCC(=O)O
Kd (LCN2 (Homo sapiens, UniProt P80188); binding, isothermal titration calorimetry; 25 °C, unreliable, far above titrant range): 2740 µM

CN1CCN(c2ccc3nc(CN4C(=O)c5ccc6c7c(ccc(c57)C4=O)C(=O)N(Cc4nc5ccc(N7CCN(C)CC7)cc5[nH]4)C6=O)[nH]c3c2)CC1
Kd (T4, dsDNA, self-complementary, T9 linker hairpin; SPR; KCl 100 mM, two-site fit): 55.2 µM

CC(C)=CCC[C@](C)(O[C@@H]1O[C@H](CO)[C@@H](O)[C@H](O)[C@H]1O)[C@H]1CC[C@]2(C)[C@@H]1[C@H](O)C[C@@H]1[C@@]3(C)CC[C@H](O)C(C)(C)[C@@H]3[C@@H](O[C@@H]3O[C@H](CO)[C@@H](O)[C@H](O)[C@H]3O[C@@H]3O[C@@H](C)[C@H](O)[C@@H](O)[C@H]3O)C[C@]12C
Kd (T5, DNA aptamer; fluorescence of eluted aptamer; pH 8.5, room temperature): 6.7 µM

CC(=O)c1ccc(NC(=O)OC[C@@H]2OC(=O)N[C@H]2CN2CCN(c3ccccc3)CC2)cc1
Kd (T6, T-box antiterminator RNA; FRET binding titration; 100 nM, 130 min, pH 6.5, 25 °C, NaCl 50 mM, single-site fit, together with: MgCl2 5 mM): 1.6 µM

Nc1ncnc2c1ncn2[C@@H]1O[C@H](COP(=O)(O)OP(=O)(O)OP(O)(O)=S)[C@@H](O)[C@H]1O
Kd (pan (Methanocaldococcus jannaschii, UniProt Q58576); binding; 25 °C, high-affinity site): ~0.493 µM

NCc1c[nH]c2nc(N)[nH]c(=O)c12
Kd (T7, RNA riboswitch, preQ1 riboswitch (Thermoanaerobacter tengcongensis); microscale thermophoresis; pH 7.5, KCl 100 mM, apparent, single-site fit): 0.027 µM

Cc1nc(C(N)=O)c(N)n1CCO
Kd (T1, ZTP riboswitch RNA (Fusobacterium ulcerans); ITC; pH 7.4, 37 °C, KCl 150 mM): 150 µM

A few entries again:
CN1CCN(c2ccc3nc(CN4C(=O)c5ccc6c7c(ccc(c57)C4=O)C(=O)N(Cc4nc5ccc(N7CCN(C)CC7)cc5[nH]4)C6=O)[nH]c3c2)CC1
Kd (T4, dsDNA, self-complementary, T9 linker hairpin; SPR; KCl 100 mM, two-site fit): 55.2 µM

CC(C)=CCC[C@](C)(O[C@@H]1O[C@H](CO)[C@@H](O)[C@H](O)[C@H]1O)[C@H]1CC[C@]2(C)[C@@H]1[C@H](O)C[C@@H]1[C@@]3(C)CC[C@H](O)C(C)(C)[C@@H]3[C@@H](O[C@@H]3O[C@H](CO)[C@@H](O)[C@H](O)[C@H]3O[C@@H]3O[C@@H](C)[C@H](O)[C@@H](O)[C@H]3O)C[C@]12C
Kd (T5, DNA aptamer; fluorescence of eluted aptamer; pH 8.5, room temperature): 6.7 µM
